Published values from different studies.
Each line is one published result; not all experiments were run side by side. Values joined by “and” are separate records of one study, mostly repeats; a detail may differ. Numbers after ± are the reported error.

SMILES	test	test system	conditions	how to read	measurement	result
CN[C@@](C)(C[18F])C(=O)O	–	SCID mouse U87 xenograft, spleen	15 min, post injection	–	tissue uptake	16 ± 6.7 %ID/g
CC[C@H](C)[C@H](NC(=O)[C@H](CC(C)C)NC(=O)[C@H](Cc1c[nH]c2ccccc12)NC(=O)[C@H](CCC(N)=O)NC(=O)[C@@H](NC(=O)[C@H](Cc1ccccc1)NC(=O)[C@H](C)NC(=O)[C@H](CCCCNC(=O)COCCOCCNC(=O)COCCOCCNC(=O)CC[C@H](NC(=O)CCCCCCCCCCCCCCCCCCC(=O)O)C(=O)O)NC(=O)[C@H](CCC(N)=O)NC(=O)[C@H](C)NC(=O)[C@@H](NC(=O)[C@H](CCCCN)NC(=O)[C@H](CC(=O)O)NC(=O)[C@H](CC(C)C)NC(=O)C(C)(C)NC(=O)[C@@H](NC(=O)[C@H](CO)NC(=O)[C@H](Cc1ccc(O)cc1)NC(=O)[C@H](CC(=O)O)NC(=O)[C@H](CO)NC(=O)[C@@H](NC(=O)[C@H](Cc1ccccc1)NC(=O)[C@@H](NC(=O)CNC(=O)[C@H](CCC(=O)O)NC(=O)C(C)(C)NC(=O)[C@@H](N)Cc1ccc(O)cc1)[C@@H](C)O)[C@@H](C)O)[C@@H](C)CC)[C@@H](C)CC)C(C)C)C(=O)N[C@@H](C)C(=O)NCC(=O)NCC(=O)N1CCC[C@H]1C(=O)N[C@@H](CO)C(=O)N[C@@H](CO)C(=O)NCC(=O)N[C@@H](C)C(=O)N1CCC[C@H]1C(=O)N1CCC[C@H]1C(=O)N1CCC[C@H]1C(=O)N[C@@H](CO)C(N)=O	–	human, severe hepatic impairment	subcutaneous, 5 mg	relative to: normal hepatic function	tmax difference	0 h
O[C@H]1CCCN[C@@H]1CCCn1cnc2c(Cl)c(Cl)ccc21	–	human, plasma	oral, 600 mg single dose, capsule, geometric mean	–	AUC(0-last)	1010 ng·h/mL
N=C(N)NCCC[C@H](NC(=O)CNC(=O)c1ccc2c(c1)C(=O)OC21c2ccc(O)cc2Oc2cc(O)ccc21)C(=O)N[C@@H](CCCCN)C(=O)N[C@@H](CCCCN)C(=O)N[C@@H](CCCNC(=N)N)C(=O)N[C@@H](CCCNC(=N)N)C(=O)N[C@@H](CCC(N)=O)C(=O)N[C@@H](CCCNC(=N)N)C(=O)N[C@@H](CCCNC(=N)N)C(=O)N[C@@H](CCCNC(=N)N)C(=O)N1CCC[C@H]1C(=O)N1CCC[C@H]1C(=O)N[C@@H](CCC(N)=O)C(=O)O	no effect	Sprague-Dawley rat, excised skin	50 µmol/L, 37 °C, FAM-labelled CPP conjugate	relative to: free FAM	apparent skin permeability	no effect
CC1(C)S[C@@H]2[C@H](NC(=O)[C@H](C(=O)O)c3ccsc3)C(=O)N2[C@H]1C(=O)O	–	Sprague-Dawley rat, plasma	intravenous, 144 mg/kg	–	t1/2	1.04 ± 0.09 h
CCCCCCCC[N+](C)(C)Cc1ccccc1	ultrafiltration	human serum	–	–	unbound fraction in blood	0.231
O=C(c1cccc(-c2nc3ccccc3[nH]2)n1)N1CCN(C(=O)c2cccc(-c3nc4ccccc4[nH]3)n2)CC1	LC-MS/MS	rat, plasma	oral, 80 mg/kg	–	apparent volume of distribution	3.38 L/kg
Oc1ccc2ccc3cccc4ccc1c2c34	HPLC-fluorescence	Wistar rat, male, ileum	oral, 4 mg/kg PY, 24 h	–	tissue concentration	10700 ± 1000 ng/g
CSCC[C@@H]1NC(=O)[C@H](CC(=O)O)NC(=O)CNC(=O)[C@H](CCCNC(=N)N)NC(=O)[C@H](C)NC(=O)[C@H](CCC(=O)O)NC(=O)[C@H](CCCNC(=N)N)NC(=O)[C@@H]2CSSC[C@@H]3NC(=O)[C@H](CO)NC(=O)[C@H]([C@@H](C)O)NC(=O)[C@@H]4CCCN4C(=O)[C@H](C)NC(=O)[C@H](Cc4c[nH]c5ccccc45)NC(=O)[C@H](CC(=O)O)NC(=O)CNC(=O)[C@H](CCCNC(=N)N)NC(=O)CNC(=O)[C@H](CCC(N)=O)NC(=O)[C@@H]4CCCN4C(=O)[C@@H](NC(=O)CNC(=O)C(C)F)CSSC[C@H](NC(=O)CNC(=O)[C@H](C)NC(=O)[C@H](CC(C)C)NC(=O)[C@H](CSSC[C@@H](C(=O)NCC(N)=O)NC(=O)[C@H]([C@@H](C)O)NC(=O)[C@H](CCCNC(=N)N)NC(=O)[C@@H]4CCCN4C1=O)NC(=O)[C@H](CC(=O)O)NC(=O)[C@H](CO)NC(=O)[C@H](CC(=O)O)NC(=O)[C@H](CCC(N)=O)NC(=O)[C@H](CO)NC3=O)C(=O)N[C@@H](C(C)C)C(=O)N2 (stereo partly drawn) [fluorine-18 labelled]	–	nude mice U-87 MG xenograft, stomach	intravenous, 1 h	–	tissue uptake	1.07 ± 0.02 %ID/g
CC(=O)N[C@H](CCCCNC(=O)C(C)F)C(=O)N[C@@H](CS)C(=O)N[C@@H](CS)C(=O)N[C@@H](CCC(=O)O)C(=O)N[C@@H](Cc1c[nH]cn1)C(=O)N[C@H](Cc1ccccc1)C(=O)N[C@@H](CCCNC(=N)N)C(=O)N[C@@H](Cc1c[nH]c2ccccc12)C(=O)N[C@@H](CS)C(=O)N[C@@H](CCCNC(=N)N)C(=O)N1CCC[C@H]1C(=O)N[C@H](C(N)=O)C(C)C (stereo partly drawn) [fluorine-18 labelled]	–	C57BL/6 mice, male, B16-F10 tumour, tumor	intravenous, 1 h	–	tissue uptake	1.8 ± 0.18 %ID/g
CC[C@H](C)[C@H](NC(=O)[C@H](CCCCN)NC(=O)[C@H](CCCCN)NC(=O)[C@H](CC(C)C)NC(=O)[C@@H](NC(=O)[C@H](CCCCN)NC(=O)[C@H](C)NC(=O)[C@H](C)NC(=O)[C@@H](NC(=O)CNC(=O)[C@H](C)NC(=O)[C@@H](NC(=O)[C@@H](NC(=O)[C@@H]1CCCN1C(=O)[C@H](Cc1ccccc1)NC(=O)[C@@H](N)Cc1ccccc1)[C@@H](C)CC)C(C)C)C(C)C)C(C)C)C(=O)N[C@@H](Cc1ccccc1)C(=O)N[C@H]1CSSC[C@@H](C(=O)O)NC(=O)[C@H](CCCCN)NC(=O)[C@H](CCCCN)NC(=O)[C@H](CO)NC(=O)[C@H]([C@@H](C)CC)NC(=O)[C@H]([C@@H](C)O)NC1=O	haemolysis	horse erythrocytes	2 h, 37 °C	–	HC50	37.6 µM
Nc1nc(N)nc(N)n1	LC-MS/MS	non-pregnant female rat, serum	oral, 1000 mg/kg/day, 10 days	–	serum concentration	155 µg/mL and 531 µg/mL and 32.1 µg/mL and 238 µg/mL and 284 µg/mL

Repeated from above:
SMILES	test	test system	conditions	how to read	measurement	result
N=C(N)NCCC[C@H](NC(=O)CNC(=O)c1ccc2c(c1)C(=O)OC21c2ccc(O)cc2Oc2cc(O)ccc21)C(=O)N[C@@H](CCCCN)C(=O)N[C@@H](CCCCN)C(=O)N[C@@H](CCCNC(=N)N)C(=O)N[C@@H](CCCNC(=N)N)C(=O)N[C@@H](CCC(N)=O)C(=O)N[C@@H](CCCNC(=N)N)C(=O)N[C@@H](CCCNC(=N)N)C(=O)N[C@@H](CCCNC(=N)N)C(=O)N1CCC[C@H]1C(=O)N1CCC[C@H]1C(=O)N[C@@H](CCC(N)=O)C(=O)O	no effect	Sprague-Dawley rat, excised skin	50 µmol/L, 37 °C, FAM-labelled CPP conjugate	relative to: free FAM	apparent skin permeability	no effect
